Results collected from several papers.
Protocols differ between the studies behind these lines.
Organism: Pseudomonas aeruginosa

COc1ccc2ccc(O)c(/C=N/[C@H]3CCCC[C@H]3/N=C/c3cc(F)ccc3O)c2c1
MIC (microbial growth, broth dilution; clinical isolate): > 40 µM

COc1cc(C(=O)O)ccc1NC(=O)c1ccc(NC(=O)c2ccc(NC(=O)[C@H](Cc3c[nH]nn3)NC(=O)c3ccc(NC(=O)/C(C)=C/c4ccc(O)cc4)cc3)cc2)c(OC)c1O
MIC (broth microdilution; ciprofloxacin-sensitive): 8 µg/mL

O=c1c(O)ccc(-c2ccccc2)cc1O
MIC (broth microdilution; ATCC 27853, CAMHB; 16 to 24 h, ≥80% growth inhibition): > 71.4 µM

CCCCCC[N+](C)(C)CCCCCCOc1cc(OCCCCCC[N+](C)(C)CCCCCC)cc(OCCCCCC[N+](C)(C)CCCCCC)c1.[Br-].[Br-].[Br-]
MIC (PAO1): 32 µM

CNC(C)C1CCC(N)C(OC2C(N)CC(N)C(OC3OCC(C)(O)C(NC)C3O)C2O)O1 (centres unmarked)
MIC (microbial growth, broth dilution; PAO1): 1 µM

COc1ccc2ccc(O)c(/C=N/[C@H]3CCCC[C@H]3/N=C/c3c(C)cccc3O)c2c1
MIC (microbial growth, broth dilution; clinical isolate): > 40 µM

COc1c(NC(=O)c2ccc(NC(=O)c3ccc(NC(=O)[C@H](Cc4c[nH]nn4)NC(=O)c4ccc(NC(=O)/C(C)=C/c5ccc(O)cc5)cc4)cc3)c(OC)c2O)ccc(C(=O)O)c1O
MIC (broth microdilution; ciprofloxacin-sensitive): 4 µg/mL

CC[C@H]1OC(=O)[C@H](C)[C@@H](O[C@H]2C[C@@](C)(OC)[C@@H](O)[C@H](C)O2)[C@H](C)[C@@H](O[C@@H]2O[C@H](C)C[C@H](N(C)C)[C@H]2O)[C@](C)(O)C[C@@H](C)CN(C)[C@H](C)[C@@H](O)[C@]1(C)O
MIC (microbial growth, broth dilution): 1 µg/mL

CC1(C)C(NC(=O)C(=NOC2(C(=O)O)CCC2)c2csc(N)n2)C(=O)N1OS(=O)(=O)O (centres unmarked)
MIC (agar dilution; PAO1): 1 µg/mL

CC[C@H]1OC(=O)[C@H](C)[C@@H](OC(=O)c2ccc(N)cc2)[C@H](C)[C@@H](O[C@@H]2O[C@H](C)C[C@H](N(C)C)[C@H]2O)[C@](C)(OC)C[C@@H](C)C(=O)[C@H](C)[C@@H](O)[C@]1(C)O
MIC (microbial growth; ATCC27853): > 32 µg/mL

C=CCO/N=C(\C(=O)N[C@@H]1C(=O)N(OS(=O)(=O)O)C1(C)C)c1nsc(N)n1
MIC (agar dilution; PAO1): 4 µg/mL

CCCCCCCC(=O)Oc1c(C)c(OC)c2c(c1C)OC(=O)[C@@H](CCCCCC)[C@]2(O)/C=C/c1ccccc1 (racemic)
MIC (microbial growth, broth dilution; ATCC27853): 5000 µg/mL

CC1(C)[C@H](NC(=O)/C(=N\OCCN)c2csc(N)n2)C(=O)N1OS(=O)(=O)O
MIC (agar dilution; PAO1): > 64 µg/mL

CCCCCCCCCC[N+](C)(C)CCCCCCCCOc1cc(OCCCCCCCC[N+](C)(C)CCCCCCCCCC)cc(OCCCCCCCC[N+](C)(C)CCCCCCCCCC)c1.[Br-].[Br-].[Br-]
MIC (PAO1): 32 µM

CN[C@H](CC(C)C)C(=O)N[C@H]1C(=O)N[C@@H](CC(N)=O)C(=O)N[C@H]2C(=O)N[C@H]3C(=O)N[C@H](C(=O)N[C@H](C(=O)NCc4cn(CC(=O)N[C@H](C(=O)N[C@@H](CCN)C(=O)N[C@H]5CCNC(=O)[C@H]([C@@H](C)O)NC(=O)[C@H](CCN)NC(=O)[C@H](CCN)NC(=O)[C@H](CC(C)C)NC(=O)[C@@H](CC(C)C)NC(=O)[C@H](CCN)NC5=O)[C@@H](C)O)nn4)c4cc(O)cc(O)c4-c4cc3ccc4O)[C@H](O)c3ccc(c(Cl)c3)Oc3cc2cc(c3O[C@@H]2O[C@H](CO)[C@@H](O)[C@H](O)[C@H]2O[C@H]2C[C@](C)(N)[C@H](O)[C@H](C)O2)Oc2ccc(cc2Cl)[C@H]1O
MIC (broth microdilution; ATCC 10145, cation-adjusted Mueller-Hinton broth; 18 to 20 h, 37 °C, 0.002% polysorbate 80): > 128 µg/mL

CC[C@H]1OC(=O)[C@H](C)[C@@H](OC(=O)Cc2c(F)cc([N+](=O)[O-])cc2F)[C@H](C)[C@@H](O[C@@H]2O[C@H](C)C[C@H](N(C)C)[C@H]2O)[C@](C)(OC)C[C@@H](C)C(=O)[C@H](C)[C@@H](O)[C@]1(C)O
MIC (DSM 50071; compound alone): > 128 µM

C#CCNC(=O)C(C)(C)O/N=C(\C(=O)N[C@@H]1C(=O)N(S(=O)(=O)O)[C@H]1C)c1csc(N)n1
MIC (microbial growth, agar dilution; PAO1): 64 µg/mL

COc1cc(C(=O)O)ccc1NC(=O)c1ccc(NC(=O)c2ccc(NC(=O)[C@H](Cc3c[nH]nn3)NC(=O)c3ccc(NC(=O)/C(C)=C/c4ccc(O)cc4)cc3)cc2)cc1
MIC (broth microdilution; ciprofloxacin-resistant): 32 µg/mL

CCCCCCCCCCCC(=O)Oc1c(C)c(OC)c2c(c1C)OC(=O)[C@@H](CCCCCCCCCC)[C@]2(O)/C=C/c1ccccc1 (relative stereo)
MIC (microbial growth, broth dilution; ATCC27853): 5000 µg/mL

CCCCCCC#Cc1cncc(-c2nnc(SCc3cc([N+](=O)[O-])cc([N+](=O)[O-])c3)n2C)c1
MIC (microbial growth, broth dilution; DSM1128): > 64 µg/mL

O=[N+]([O-])c1cc(Cl)c2cccnc2c1O
MIC (microbial growth, broth dilution; ATCC27853): 16 µg/mL

CCOc1c(NC(=O)c2ccc(NC(=O)[C@H](Cc3c[nH]nn3)NC(=O)c3ccc(NC(=O)/C(C)=C/c4ccc(O)cc4)cc3)cc2)ccc(C(=O)Nc2ccc(C(=O)O)c(O)c2OC)c1O
MIC (broth microdilution; ciprofloxacin-sensitive): 64 µg/mL

COc1ccc2ccc(O)c(/C=N/[C@H]3CCCC[C@H]3/N=C/c3cccc(F)c3O)c2c1
MIC (microbial growth, broth dilution): > 40 µM

CCCCCCCC[N+](C)(C)CCCCOc1cc(OCCCC[N+](C)(C)CCCCCCCC)cc(OCCCC[N+](C)(C)CCCCCCCC)c1.[Br-].[Br-].[Br-]
MIC (PAO1): 16 µM

CC[C@H]1OC(=O)[C@H](C)[C@@H](OC(=O)Cc2c(F)cccc2F)[C@H](C)[C@@H](O[C@@H]2O[C@H](C)C[C@H](N(C)C)[C@H]2O)[C@](C)(OC)C[C@@H](C)C(=O)[C@H](C)[C@@H](O)[C@]1(C)O
MIC (DSM 50071; added: colistin sulfate at 0.5 x MIC): 64 µM

CC1(C)[C@H](NC(=O)/C(=N\OCc2c(Cl)cccc2Cl)c2csc(N)n2)C(=O)N1OS(=O)(=O)O
MIC (agar dilution; PAO1): > 64 µg/mL

NC[C@H]1O[C@H](O[C@H]2[C@H](O)[C@@H](O[C@H]3O[C@H](CO)[C@@H](O)[C@H](N)[C@H]3O)[C@H](N)C[C@@H]2N)[C@H](N)C[C@@H]1O
MIC (broth microdilution; pyocyanin non-producing): 0.125 µg/mL

CC(C)C[C@@H]1NC(=O)[C@@H](CC(C)C)NC(=O)[C@H](CCN)NC(=O)[C@@H](NC(=O)[C@H](CCN)NC(=O)[C@@H](N)[C@@H](C)O)CCNC(=O)[C@H]([C@@H](C)O)NC(=O)[C@H](CCN)NC(=O)[C@H](CCN)NC1=O
MIC (broth microdilution; ATCC 10145, cation-adjusted Mueller-Hinton broth): > 138 µM

O=C(O)c1cn(C2CC2)c2cc(N3CCNCC3)c(F)cc2c1=O
MIC (broth microdilution; pyocyanin non-producing): 0.03 µg/mL

CCOc1c(NC(=O)c2ccc(NC(=O)c3ccc(NC(=O)[C@H](Cc4c[nH]nn4)NC(=O)c4ccc(NC(=O)/C(C)=C/c5ccc(O)cc5)cc4)cc3)c(OCC)c2O)ccc(C(=O)O)c1O
MIC (broth microdilution; ciprofloxacin-resistant): 2 µg/mL

CCCCCCCCCCCCCCCCCCn1cc(CN(CCC(=O)NCCN(CCC(=O)NCCN(CCC(=O)NCCN(C)C)CCC(=O)NCCN(C)C)CCC(=O)NCCN(CCC(=O)NCCN(C)C)CCC(=O)NCCN(C)C)CCC(=O)NCCN(CCC(=O)NCCN(CCC(=O)NCCN(C)C)CCC(=O)NCCN(C)C)CCC(=O)NCCN(CCC(=O)NCCN(C)C)CCC(=O)NCCN(C)C)nn1
MIC (microbial growth, broth dilution; PAO1; 18 h): > 96 µg/mL

CC[C@H]1OC(=O)[C@H](C)[C@@H](O[C@H]2C[C@@](C)(OC)[C@@H](O)[C@H](C)O2)[C@H](C)[C@@H](O[C@@H]2O[C@H](C)C[C@H](N(C)C)[C@H]2O)[C@](C)(OC)C[C@@H](C)C(=O)[C@H](C)[C@@H](O)[C@]1(C)O
MIC (PAO397, five efflux pumps deleted): > 32 µg/mL

COc1ccc2ccc(O)c(/C=N/[C@H]3CCCC[C@H]3/N=C/c3cccc(C)c3O)c2c1
MIC (microbial growth, broth dilution; clinical isolate): > 40 µM

CC[C@H]1OC(=O)[C@H](C)[C@@H](OC(=O)Cc2cccc(Cl)c2)[C@H](C)[C@@H](O[C@@H]2O[C@H](C)C[C@H](N(C)C)[C@H]2O)[C@](C)(OC)C[C@@H](C)C(=O)[C@H](C)[C@@H](O)[C@]1(C)O
MIC (microbial growth; ATCC27853): > 32 µg/mL

C#CCO/N=C(\C(=O)N[C@@H]1C(=O)N(OS(=O)(=O)O)C1(C)C)c1csc(N)n1
MIC (agar dilution; ATCC 27853): > 64 µg/mL

Repeated from above:
COc1c(NC(=O)c2ccc(NC(=O)c3ccc(NC(=O)[C@H](Cc4c[nH]nn4)NC(=O)c4ccc(NC(=O)/C(C)=C/c5ccc(O)cc5)cc4)cc3)c(OC)c2O)ccc(C(=O)O)c1O
MIC (broth microdilution; ciprofloxacin-sensitive): 4 µg/mL

CC[C@H]1OC(=O)[C@H](C)[C@@H](O[C@H]2C[C@@](C)(OC)[C@@H](O)[C@H](C)O2)[C@H](C)[C@@H](O[C@@H]2O[C@H](C)C[C@H](N(C)C)[C@H]2O)[C@](C)(O)C[C@@H](C)CN(C)[C@H](C)[C@@H](O)[C@]1(C)O
MIC (microbial growth, broth dilution): 1 µg/mL
